Measured values collected from several papers.
Parts stem from different laboratories: compare values within a part only.

Sample 1
Target: Interferon regulatory factor 5, full length, phosphomimetic (IRF5, Homo sapiens, UniProt Q13568-2, residues 1-514, S451D/S453D/S456D/S462D)
Method: protein-binding microarray
Form: double-stranded DNA, one strand shown
Sample: in vitro
Tested at: 940 nM top
Notes: 60-bp whole probe
Added: salmon DNA 0.4 mg/ml
Reference: random background probes
Direction: higher = stronger binding
Constant ends, left off below: GCCTAGCAC … GTCTTGATTCGCTTGACGCTGCTG
`ACAAATACAAGTTTCTCCTTGTGCTAG` — result for “fitted relative affinity”: 1.5 z-score.
Under “fitted relative affinity”, `GACGGTTTCCGTCTCCTGACGTGCTAG` is recorded as 1.99 z-score.
`GACGGCATCCTTCTCCTGACGTGCTAG`: “fitted relative affinity” 0.00779 z-score.
`GACCGTATCCTTCTCCTGACGTGCTAG`: “fitted relative affinity” 0.588 z-score.
`ATTTGTTTCCATTTTCTGAAGTGCTAG`: “fitted relative affinity” 1.69 z-score.
`GACGGAGTGGGACTGGGGACGTGCTAG` — result for “fitted relative affinity”: -0.616 z-score.
Under “fitted relative affinity”, `TTAGGTCTCGGTTTAGGTTAGTGCTAG` is recorded as 6.13 z-score.
`TTAGAACTGGGGACTGGATAAGTGCTA` — result for “fitted relative affinity”: -0.0243 z-score.

Sample 2
Target: Prothrombin, mature alpha-thrombin (F2, Homo sapiens, UniProt P00734)
Method: aptamer microarray, sandwich
Form: DNA with 2'F-ANA
Sample: in vitro
Tested at: 200 nM
Notes: whole 15-mer aptamer, many near background
Added: Cy3 exosite-II aptamer, 400 nM
Direction: higher = stronger binding
Sequence: GGTTGGTGTGGTTGG
`2'F-ANA at 1 2 3 5 6 7 9 10 11 14` — result for “mean fluorescence intensity”: 67.8 a.u.
For `2'F-ANA at 9 10 11 12 13 15`, “mean fluorescence intensity” read 174 a.u.
For `2'F-ANA at 1 2 7 13 14 15`, “mean fluorescence intensity” read 54.8 a.u.
Under “mean fluorescence intensity”, `2'F-ANA at 3 5 6 7 8 12 15` is recorded as 296 a.u.
`2'F-ANA at 1 2 3 4 5 6 8 9 10 11 12 13` — result for “mean fluorescence intensity”: 48.9 a.u.
Under “mean fluorescence intensity”, `2'F-ANA at 1 2 3 7 10 11 15` is recorded as 64.3 a.u.
Under “mean fluorescence intensity”, `2'F-ANA at 2 3 4 6 8 11 13 14` is recorded as 246 a.u.
`2'F-ANA at 1 6 7 8 9 10 11 12 13 15`: “mean fluorescence intensity” 120 a.u.

Sample 3
Target: Sal-like protein 4, full length isoform A (SALL4, Homo sapiens, UniProt Q9UJQ4, residues 1-1053)
Chain of UniProt Q9UJQ4 (whole entry, looked up): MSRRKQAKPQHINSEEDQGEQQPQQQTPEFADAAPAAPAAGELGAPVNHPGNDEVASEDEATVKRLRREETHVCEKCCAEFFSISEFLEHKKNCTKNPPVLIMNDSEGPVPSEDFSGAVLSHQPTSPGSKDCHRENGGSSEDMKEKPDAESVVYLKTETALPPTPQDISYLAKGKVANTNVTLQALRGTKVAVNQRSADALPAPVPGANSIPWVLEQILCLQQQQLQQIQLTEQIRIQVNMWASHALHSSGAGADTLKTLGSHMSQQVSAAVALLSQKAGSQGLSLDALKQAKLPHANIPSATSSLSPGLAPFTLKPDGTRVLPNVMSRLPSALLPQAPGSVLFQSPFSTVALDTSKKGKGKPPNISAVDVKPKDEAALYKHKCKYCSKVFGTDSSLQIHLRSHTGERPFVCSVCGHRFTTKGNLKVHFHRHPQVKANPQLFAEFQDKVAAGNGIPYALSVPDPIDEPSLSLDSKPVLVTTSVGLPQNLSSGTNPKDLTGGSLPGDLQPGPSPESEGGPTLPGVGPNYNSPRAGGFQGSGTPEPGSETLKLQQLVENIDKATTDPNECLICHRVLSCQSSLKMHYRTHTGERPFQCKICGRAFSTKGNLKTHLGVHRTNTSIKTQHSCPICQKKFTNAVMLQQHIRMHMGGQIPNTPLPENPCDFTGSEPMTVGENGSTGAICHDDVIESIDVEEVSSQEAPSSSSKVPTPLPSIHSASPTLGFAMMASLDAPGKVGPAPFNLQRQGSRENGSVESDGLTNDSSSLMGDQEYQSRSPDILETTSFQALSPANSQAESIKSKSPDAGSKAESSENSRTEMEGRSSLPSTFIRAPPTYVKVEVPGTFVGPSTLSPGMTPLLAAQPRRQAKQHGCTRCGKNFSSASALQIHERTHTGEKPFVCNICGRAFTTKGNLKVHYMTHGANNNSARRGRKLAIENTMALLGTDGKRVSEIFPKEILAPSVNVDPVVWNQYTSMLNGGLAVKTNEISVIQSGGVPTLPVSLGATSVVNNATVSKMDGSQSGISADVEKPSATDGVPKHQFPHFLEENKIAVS
Method: universal PBM
Form: double-stranded DNA, one strand shown
Sample: in vitro
Tested at: 600 nM
Notes: 8-mer, flanks averaged, mean of replicates
Direction: higher = stronger binding
`CGCATAAG` has an E-score of 0.13.
The E-score of `CCGCCAGG` is reported as -0.368.
`GTCTCTAA` has an E-score of 0.121.
`CACGCGTC` gave an E-score of -6e-05.
With `CCACGCAG` the E-score was -0.131.
`GGATAAAC` gave an E-score of 0.199.

Further values, each from its own experiment
`PhoQ, residues 284 288 289 292 302 303 SSYNSA` has a fold induction of 2.14 (PhoP, residues 12 14 15 18 19 SMASL (Escherichia coli, UniProt P23836); Sort-seq, refers to: YFP reporter; E. coli; PhoQ-PhoP variant library, added: 10 µM Mg2+; reference: high Mg2+ state, higher = stronger signaling).

Repeated from above (sample 2):
`2'F-ANA at 1 2 3 5 6 7 9 10 11 14` — result for “mean fluorescence intensity”: 67.8 a.u.
For `2'F-ANA at 9 10 11 12 13 15`, “mean fluorescence intensity” read 174 a.u.
